Assay results from different studies.
Numbered parts are unrelated; each lists some results of a single study. Positions count from the first letter of the parent shown.

Block 1
Substance: PhoQ, residues 284 288 289 292 302 303 SVTLVV
Method: Sort-seq
Item: YFP reporter
Sample: E. coli
Notes: PhoQ-PhoP variant library
Together with: 10 µM Mg2+
Reference: high Mg2+ state
Reading: higher = stronger signaling
Endpoint: fold induction
target = PhoP, residues 12 14 15 18 19 TQAML (Escherichia coli, UniProt P23836); result = 17.7
target = PhoP, residues 12 14 15 18 19 NQCAL (Escherichia coli, UniProt P23836); result = 14.3
target = PhoP, residues 12 14 15 18 19 LHTVL (Escherichia coli, UniProt P23836); result = 1.81

Block 2
Target: CCNF, cyclin fold, Cln2 fusion (human)
Method: yeast growth competition, sequencing
Sample: yeast
Notes: strong parent motif
Reference: not given
Reading: higher = stronger binding
Endpoint: normalised enrichment score
Starting sequence: RBL1 docking peptide (human); GSAKRRLFGEDPP
Variant = GSAKRRLCGEDPP [F8C]; result = 0.228
Variant = GSAHRRLFGEDPP [K4H]; result = 3.11
Variant = GSAKRRSFGEDPP [L7S]; result = 0.0939
Variant = GSASRRLFGEDPP [K4S]; result = 5.53
Variant = LSAKRRLFGEDPP [G1L]; result = 9.32

Block 3
Target: Interferon regulatory factor 5, full length, phosphomimetic (IRF5, Homo sapiens, UniProt Q13568-2, residues 1-514, K96S/S451D/S453D/S456D/S462D)
Method: protein-binding microarray
Form: double-stranded DNA, one strand shown
Sample: in vitro
Concentration: 250 nM
Notes: 60-bp whole probe
Together with: salmon DNA 0.4 mg/ml
Reference: random background probes
Reading: higher = stronger binding
Endpoint: log fluorescence
Shared flanks, not repeated: GCCTAGCAC … GTCTTGATTCGCTTGACGCTGCTG
Sequence = GGTCTTCTGGGCTGTTTGGTCGTGCTA; result = -0.439 z-score
Sequence = CTGGTTTTACTTTCTATCTCGTGCTAG; result = 5.1 z-score
Sequence = TCATAACTCATTCTCCAACTGTGCTAG; result = 0.374 z-score
Sequence = TCATTTCCATTTTCTGAAACTGTGCTA; result = 2.51 z-score
Sequence = TTAGAACTGACTTTCGATTAGTGCTAG; result = 9.79 z-score
Sequence = GGGCATTTGGAAAATGAAAATGTGCTA; result = 0.19 z-score
Sequence = ACTTGTATTTGTCCCTATTTGTGCTAG; result = 0.484 z-score
Sequence = GACGGTTTCGGTCTCGGGCCGTGCTAG; result = 9.82 z-score
Sequence = GACGGTATCAGGTATCGGGACGTGCTA; result = 1.39 z-score

Block 4
Target: CREBL2, bZIP domain (human)
Method: DHFR protein complementation
Sample: yeast
Notes: single substitutions, most at no-binding floor
Reference: wild-type JUN-FOS pair
Reading: higher = stronger binding
Endpoint: binding fitness
Starting sequence: JUN, bZIP domain (human); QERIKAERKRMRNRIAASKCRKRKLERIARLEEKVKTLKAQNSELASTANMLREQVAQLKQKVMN; partner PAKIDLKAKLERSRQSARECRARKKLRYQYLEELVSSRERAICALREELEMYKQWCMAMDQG
Variant = I28F; result = -1.46 natural log
Variant = E33F; result = -1.29 natural log
Variant = K34E; result = -1.64 natural log
Variant = K36D; result = -1.42 natural log
Variant = V56W; result = -1.55 natural log
Variant = Q41A; result = -1.5 natural log
Variant = E44P; result = -1.54 natural log

A few entries again (block 2):
Variant = GSAHRRLFGEDPP [K4H]; result = 3.11
Variant = GSAKRRSFGEDPP [L7S]; result = 0.0939
Variant = GSASRRLFGEDPP [K4S]; result = 5.53
